Measured values pooled from the literature.
A part holds a random share of what one study measured. Changes are numbered by the printed parent chain.

Sample 1 — target: CCNB1, cyclin fold, Cln2 fusion (human); method: yeast growth competition, sequencing; medium: yeast; setting: weak parent motif; baseline: not given; direction: higher = stronger binding
Starting sequence: SLBP docking peptide (human); ARYKRKLLINDFG
`ARYKRKLLINGFG [D11G]` — result for “normalised enrichment score”: 0.431.
`WRYKRKLLINDFG [A1W]` — result for “normalised enrichment score”: 1.24.
Under “normalised enrichment score”, `ARYKRKLLINDFY [G13Y]` is recorded as 1.12.
Under “normalised enrichment score”, `ARYKRKRLINDFG [L7R]` is recorded as 0.0755.
`AREKRKLLINDFG [Y3E]`: “normalised enrichment score” 0.743.
For `ARYKRKLLNNDFG [I9N]`, “normalised enrichment score” read 0.71.
`ARYKRKLLIEDFG [N10E]` — result for “normalised enrichment score”: 0.738.
For `DRYKRKLLINDFG [A1D]`, “normalised enrichment score” read 0.472.
`ARYKRTLLINDFG [K6T]`: “normalised enrichment score” 0.75.
For `ARYKRKLLANDFG [I9A]`, “normalised enrichment score” read -0.304.

Sample 2 — method: protein binding microarray; molecule type: double-stranded DNA, one strand shown; medium: in vitro; concentration: not given; baseline: not given; direction: higher = stronger binding
Target: Histone acetyltransferase KAT6A, both winged helices, GST fusion (KAT6A, Homo sapiens, UniProt Q92794, residues 1-181)
Setting: 8-mer, flanks averaged, mean of 2 arrays, mostly near background
Construct (chain): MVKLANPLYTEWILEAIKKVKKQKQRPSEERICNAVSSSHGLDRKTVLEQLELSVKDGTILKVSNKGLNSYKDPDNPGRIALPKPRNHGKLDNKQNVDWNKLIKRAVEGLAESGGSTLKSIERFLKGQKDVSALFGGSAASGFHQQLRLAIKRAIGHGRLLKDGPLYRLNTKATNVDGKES
The E-score of `CGAAATAC` is reported as -0.00868.
`CGACCATC` has an E-score of -0.0839.
With `CCTTCGTC` the E-score was -0.131.
The E-score of `CCACAGAC` is reported as -0.108.
For `CCACTGGC`, the E-score was -0.125.
With `GAGAATCC` the E-score was -0.0145.

Sample 3 — method: RNA Bind-n-Seq; molecule type: RNA; medium: in vitro; concentration: 365 nM; baseline: no-protein control; direction: higher = stronger binding
Target: RNA binding protein fox-1 homolog 2, RRM domain, GST-SBP tag (RBFOX2, Homo sapiens, UniProt O43251-10, residues 100-194)
Setting: natural RNA segment, single round, ends assumed
Residues (chain): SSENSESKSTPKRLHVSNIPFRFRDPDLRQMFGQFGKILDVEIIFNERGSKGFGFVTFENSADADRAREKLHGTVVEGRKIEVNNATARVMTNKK
Under “RBNS enrichment (R)”, `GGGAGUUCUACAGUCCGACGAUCUACUGAAAGCAAGCAGUGGCCUAUAAAGAACAUUCUUAGGAGCCUUUUCUAUUUGCGUUCAAAACUGUGUGUUCUCUUUCUAUUCCUAUUUGAUAGUUUGAGUCAUGGUCUGGAAUUCUCGGGUGCCAA` is recorded as 0.289.
`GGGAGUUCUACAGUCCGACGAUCCUGGAAAUACUUUUUAAAGAAAAAGAAAAACACAAGAAAAAAAUCAGUAUCAGAAGUCAAAGCGAAACAAUACCGUCUGGCACUUAACUCUCAGGUCCCCCACUUAGUCAUGGAAUUCUCGGGUGCCAA` — result for “RBNS enrichment (R)”: 0.754.
`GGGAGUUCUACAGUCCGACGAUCGGACAGUGAUAUUGAUCUUUUCACAAUGUACGUAGCCUCUAGAAUUUUGUACAUAUGUUUGCUCUUUUUUUGUACAGACUAGUUGUUGAGAAAACAGGGGCGUUUCCUAAUGGAAUUCUCGGGUGCCAA` — result for “RBNS enrichment (R)”: 1.8.
`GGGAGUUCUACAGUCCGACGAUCAAUGUUAUUGGUGUCUUCACUGGAUAUGUUUGACUGCUGUGGACUUGUGUUGGGAGGAGGAUGUCCUCACUCGGAUGCCGACACGGGAGACAAUGGGAUGAAAGGCUUCAUGGAAUUCUCGGGUGCCAA` — result for “RBNS enrichment (R)”: 0.447.
Under “RBNS enrichment (R)”, `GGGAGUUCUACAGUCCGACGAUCUUAGCACAGAUUUUAAUUGUCAUGGUUACAAACUACAGACCUGCUUUUUGAAAUGAAAUUUAAACAUAAAAAUGGAACUGUGUUCUCUGUCUCUUUACUGAAGAUAAAGGUGGAAUUCUCGGGUGCCAA` is recorded as 0.453.
`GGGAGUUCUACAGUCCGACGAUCAUUAAUUAAGAGGUUGAAAAGAAGUGCAGUGUAAGAAAACCCAGCAUUUUAAUUACUUGCAAAUUAAGUUACCACAGACUCUGUAGUGUGUAAAUGUUGACAAGGAAUUGUGGAAUUCUCGGGUGCCAA` — result for “RBNS enrichment (R)”: 0.514.
Under “RBNS enrichment (R)”, `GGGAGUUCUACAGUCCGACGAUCCUUGAUCUGAAAUCCACAAUUAGACCACAAUGCACCUUUGGUUGUAUCCAUAAAGGAUGCUAGCCUGCCUUGUACUAAUGUUUUAUAUAUUAAAAAAAAAAAAUCUAUCAUGGAAUUCUCGGGUGCCAA` is recorded as 0.567.
`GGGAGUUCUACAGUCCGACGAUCAUCUCACUUGCUUGAAACAGGAGCCAGCAUGAUCUCUGGAAGCAUCAACUAUCCCUCGUCGUGAUUGUUGAAAGCUCUUUCACUGUUUUGCAUUCUAGUUUGAAUAGUUUUGGAAUUCUCGGGUGCCAA`: “RBNS enrichment (R)” 4.94.

Single results of other studies
The fold induction of `PhoQ, residues 284 288 289 292 302 303 SLSVQF` is reported as 0.316 (PhoP, residues 12 14 15 18 19 NIMAP (Escherichia coli, UniProt P23836); Sort-seq, item: YFP reporter; E. coli; PhoQ-PhoP variant library, together with: 10 µM Mg2+; baseline: high Mg2+ state, higher = stronger signaling).

A few entries again (sample 3):
Under “RBNS enrichment (R)”, `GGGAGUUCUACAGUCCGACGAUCUUAGCACAGAUUUUAAUUGUCAUGGUUACAAACUACAGACCUGCUUUUUGAAAUGAAAUUUAAACAUAAAAAUGGAACUGUGUUCUCUGUCUCUUUACUGAAGAUAAAGGUGGAAUUCUCGGGUGCCAA` is recorded as 0.453.
`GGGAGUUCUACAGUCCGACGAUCAUUAAUUAAGAGGUUGAAAAGAAGUGCAGUGUAAGAAAACCCAGCAUUUUAAUUACUUGCAAAUUAAGUUACCACAGACUCUGUAGUGUGUAAAUGUUGACAAGGAAUUGUGGAAUUCUCGGGUGCCAA` — result for “RBNS enrichment (R)”: 0.514.
